Results pooled from the literature.
Each line is one published result; not all experiments were run side by side. ± gives the spread as reported. Converted amounts (≈) assume the structure as drawn.
Organism: Candida albicans

`CC(=O)N[C@H]1[C@@H](O[C@@H]2O[C@H](C[C@@H](O)[C@H]3O[C@@H](n4ccc(=O)[nH]c4=O)[C@H](O)[C@@H]3O)[C@H](O)[C@H](O)[C@H]2NC(=O)/C=C/CCCCCCCCCC(C)C)O[C@H](CO)[C@@H](O)[C@@H]1O` gave an MIC50 of under 0.1 µg/mL (alamar blue; 18 M).
The MIC of `CC[C@H](C)[C@H](NC(=O)CN)C(=O)NCC(=O)N[C@@H](C)C(=O)N[C@H](C(=O)N[C@@H](CC(C)C)C(=O)N[C@@H](CCCCN)C(=O)N[C@H](C(=O)N[C@@H](CC(C)C)C(=O)N[C@H](C(=O)N[C@H](C(=O)NCC(=O)N[C@@H](CC(C)C)C(=O)N1CCC[C@H]1C(=O)N[C@@H](C)C(=O)N[C@@H](CC(C)C)C(=O)N[C@H](C(=O)N[C@@H](CO)C(=O)N[C@@H](Cc1c[nH]c2ccccc12)C(=O)N[C@H](C(=O)N[C@@H](CCCCN)C(=O)N[C@@H](CCCNC(=N)N)C(=O)N[C@@H](CCCCN)C(=O)N[C@@H](CCCNC(=N)N)C(=O)N[C@@H](CCC(N)=O)C(=O)N[C@@H](CCC(N)=O)C(N)=O)[C@@H](C)CC)[C@@H](C)CC)[C@@H](C)O)[C@@H](C)O)C(C)C)C(C)C` is reported as 4 µM (≈ 11.4 µg/mL) (broth microdilution; SP 3931, RPMI-1640; 48 h, 30 °C).
For `CC[C@H](C)[C@H](NC(=O)CN)C(=O)NCC(=O)N[C@@H](C)C(=O)N[C@H](C(=O)N[C@@H](CC(C)C)C(=O)N[C@@H](CCCCN)C(=O)N[C@H](C(=O)N[C@@H](CC(C)C)C(=O)N[C@H](C(=O)N[C@H](C(=O)NCC(=O)N[C@@H](CC(C)C)C(=O)N1CCC[C@H]1C(=O)N[C@@H](C)C(=O)N[C@@H](CC(C)C)C(=O)N[C@H](C(=O)N[C@@H](CO)C(=O)N[C@@H](Cc1c[nH]c2ccccc12)C(=O)N[C@H](C(=O)N[C@@H](CCCCN)C(=O)N[C@@H](CCCNC(=N)N)C(=O)N[C@@H](CCCCN)C(=O)N[C@@H](CCCNC(=N)N)C(=O)N[C@@H](CCC(N)=O)C(=O)N[C@@H](CCC(N)=O)C(N)=O)[C@@H](C)CC)[C@@H](C)CC)[C@@H](C)O)[C@@H](C)O)C(C)C)C(C)C`, the MIC was 4 µM (≈ 11.4 µg/mL) (broth microdilution; 56467, RPMI 1640-MOPS; 48 h, 30 °C).
`C#Cc1ccc(O)c(C=NNC(=O)c2cc(Br)cc(Br)c2O)c1` gave an FICI of 1.25 (A39; unit not given, added: caspofungin; lower = more synergy).
`C[C@@H]1[C@H](O)[C@@H](C)/C=C/C=C/C=C/C=C/C=C/C=C/C=C/[C@H](O[C@@H]2O[C@H](C)[C@@H](O)[C@H](N)[C@@H]2O)C[C@@H]2O[C@](O)(C[C@@H](O)C[C@@H](O)[C@H](O)CC[C@@H](O)C[C@@H](O)CC(=O)O[C@H]1C)C[C@H](O)[C@H]2C(=O)O`: “biofilm inhibition IC80” 1000 nM (MTT; CGMCC 2.209; 48 h, 30 °C).
`C[C@@H]1C[C@@H]([C@H](O)CC2CC(=O)NC(=O)C2)C(=O)[C@@H](C)C1`: “inhibition zone diameter” 40 mm (ATCC 10231; concentration not given).
`C#Cc1cccc(C=NNC(=O)c2ccc(Br)cc2)c1O` gave an FICI of 1 (A39; unit not given, added: caspofungin; lower = more synergy).
For `N=C(N)NCCC[C@H](NC(=O)CN)C(=O)N[C@@H](Cc1c[nH]c2ccccc12)C(=O)N[C@@H](CCCNC(=N)N)C(=O)N[C@@H](Cc1c[nH]c2ccccc12)C(=O)N[C@@H](Cc1c[nH]c2ccccc12)C(=O)N[C@@H](Cc1c[nH]c2ccccc12)C(=O)N[C@@H](CCCNC(=N)N)C(=O)N[C@@H](Cc1c[nH]c2ccccc12)C(=O)N[C@@H](CCCNC(=N)N)C(=O)N[C@@H](Cc1c[nH]c2ccccc12)C(N)=O`, the MIC was 8 µM (≈ 14.5 µg/mL) (broth microdilution; SP3931, RPMI 1640-MOPS; 48 h, 30 °C).
With `C#Cc1ccc(O)c(C=NNC(=O)c2ccc(C3(C(F)(F)F)N=N3)cc2)c1` the FICI was 0.62 (A39; unit not given, added: caspofungin; lower = more synergy).
`OC(Cn1cncn1)(Cn1cncn1)c1ccc(F)cc1F` has an MIC of 16 µM (≈ 4.9 µg/mL) (broth microdilution; 58288, RPMI 1640-MOPS; 48 h, 30 °C).
`C#Cc1ccc(O)c(C=NNC(=O)c2ccc(COC)cc2)c1` has an FICI of 1.03 (A39; unit not given, added: caspofungin; lower = more synergy).
`Cl.O[C@]12C=C(c3nccc4c3[nH]c3ccccc34)[C@@H]3CCN(CCCC/C=C\CC1)C[C@@]31C[C@@H]3/C=C\CCCCN3[C@H]12` has an IC50 of 5.16 ± 0.27 µg/mL (growth; ATCC 90028).

Excerpt of the above:
With `C#Cc1ccc(O)c(C=NNC(=O)c2ccc(C3(C(F)(F)F)N=N3)cc2)c1` the FICI was 0.62 (A39; unit not given, added: caspofungin; lower = more synergy).
